Results pooled from the literature.
Protocols differ between the studies behind these lines. ± marks the error that the study gave.

The IC50 of `CC(=O)[O-].Nc1ccc(C([O-])=NN=Cc2ccc(OCC(=O)Nc3ccc(Cl)cc3)cc2)cc1.[Cu+2]` is reported as 31.4 ± 2.6 µM (HeLa; cytotoxicity, MTT; 24 h).
`CCCCn1cc(C(=O)O)c(=O)c2cc(F)c3[nH]nnc3c21` has an IC50 of 165 µM (SW480; cell growth or viability, SRB).
With `COC(C)(C)C(O)COc1c2ccoc2cc2oc(=O)ccc12` (stereo not shown) the IC50 was 47.2 µM (NIH3T3; cell growth or viability, MTT; 24 h).
With `Oc1ccccc1/C=N/NC(=S)Nc1cccc(C(F)(F)F)c1` the IC50 was 8.07 µg/mL (HUVEC; cell growth or viability, CCK-8; 24 h).
`COc1cc(O)c(-c2cc(-c3c(C)cc(O)c4c(OC)ccc(-c5c(O)cc(OC)c6c5C[C@@H](C)N(C)[C@@H]6C)c34)c(O)c3c(OC)cc(C)cc23)c2c1[C@@H](C)N(C)[C@H](C)C2` has an IC50 of 6.64 µM (L6; cytotoxicity).
The IC50 of `O=C(Nc1ccc2c(c1)CN(c1ccc(Br)cc1)C2=O)N1CCN(c2ccc(F)cc2)CC1` is reported as 32 µM (primary peritoneal mouse macrophages; cytotoxicity; 5% fetal calf serum).
`COc1cc(O)c(-c2ccc(OC)c3c(O)cc(C)c(-c4cc(-c5c(O)cc(OC)c6c5C[C@@H](C)N[C@@H]6C)c5cc(C)cc(OC)c5c4O)c23)c2c1[C@@H](C)N(C)[C@H](C)C2` gave an IC50 of 6.68 µM (L6; cytotoxicity).
`CCCCn1cc(C(=O)O)c(=O)c2cc(F)c(N)c([N+](=O)[O-])c21` has an IC50 of 294 ± 39.3 µg/mL (SW480; cell growth, SRB; 72 h).
With `O=C(Nc1ccc2c(c1)CN(c1ccc(F)c(F)c1)C2=O)N1CCN(c2ccc(F)cc2)CC1` the IC50 was 32 µM (primary peritoneal mouse macrophages; cytotoxicity; 5% fetal calf serum).
With `CSc1ncc(-c2cc(-c3ccc4c(c3)OCO4)[nH]c(=N)c2C#N)n1Cc1ccccc1` the IC50 was over 130 µM (HT-29; cell growth or viability, MTT; 24 h).
`O=C(Nc1ccc2c(c1)CN(c1ccc(Cl)c(Cl)c1)C2=O)N1CCN(c2ccc(Cl)cc2)CC1` has an IC50 of over 64 µM (primary peritoneal mouse macrophages; cytotoxicity; 5% fetal calf serum).
The IC50 of `CSc1ncc(-c2cc(-c3ccc(Br)cc3)[nH]c(=O)c2C#N)n1Cc1ccccc1` is reported as over 130 µM (HT-29; cell growth or viability, MTT; 24 h).
`O=C(Nc1ccc2c(c1)CN(c1ccc(Cl)cc1)C2=O)N1CC[C@H](F)C1` has an IC50 of over 64 µM (primary peritoneal mouse macrophages; cytotoxicity; 5% fetal calf serum).
`CCSc1ncc(-c2cc(-c3ccc4c(c3)OCO4)[nH]c(=O)c2C#N)n1Cc1ccccc1` gave an IC50 of 393 µM (HT-29; cell growth or viability, MTT; 24 h).
`Cc1ccc(N2Cc3cc(NC(=O)N4CCN(c5ccc(F)cc5)CC4)ccc3C2=O)cc1` has an IC50 of 32 µM (primary peritoneal mouse macrophages; cytotoxicity; 5% fetal calf serum).
`Cc1cc(=O)c2c(O)c3c(O[C@@H]4O[C@H](CO)[C@@H](O)[C@H](O)[C@H]4O)cc(O)cc3cc2o1` gave an IC50 of over 500 µM (HK-2 in HepaRG co-culture; cell viability, MTT; 24 h).

Some of these lines once more:
`CCSc1ncc(-c2cc(-c3ccc4c(c3)OCO4)[nH]c(=O)c2C#N)n1Cc1ccccc1` gave an IC50 of 393 µM (HT-29; cell growth or viability, MTT; 24 h).
The IC50 of `O=C(Nc1ccc2c(c1)CN(c1ccc(Br)cc1)C2=O)N1CCN(c2ccc(F)cc2)CC1` is reported as 32 µM (primary peritoneal mouse macrophages; cytotoxicity; 5% fetal calf serum).
`CCCCn1cc(C(=O)O)c(=O)c2cc(F)c3[nH]nnc3c21` has an IC50 of 165 µM (SW480; cell growth or viability, SRB).
